Measurements from different studies.
Values joined by “and” are separate records of one study, mostly repeats; a detail may differ. Numbers after ± are the reported error.

`COc1cccc2c1C(=O)c1c(O)c3c(c(O)c1C2=O)C[C@@](O)(C(=O)CO)C[C@@H]3O[C@H]1C[C@H](N)[C@H](O)[C@H](C)O1` gave a selectivity ratio of 7 fold (SAOS-2, A549; cytotoxicity; baseline: SAOS-2 over A549).
`Cn1cc(-c2ccc(-c3cncc(Cl)c3N3CCC4(CCNC4=O)CC3)cc2)cn1` — result for “log2 fold change”: 5.15 (COLO 205; gene expression, microarray, item: EXD3 mRNA; concentration not given, 2 h; baseline: untreated cells).
The EC50 of `Cn1cc(-c2ccncc2)c(-c2ccc(OCc3ccc4ccccc4n3)cc2)n1` is reported as 4.93 µM (HEK293T ATF4-FLuc reporter; ATF4 reporter gene, activator, luciferase reporter).
The EC50 of `CCn1cc(-c2cc(Cn3ccoc3=N)cc3c2CCN([C@@H](C)c2cc(OC)ccn2)C3=O)c(C(F)(F)F)n1` is reported as 25.7 µM (COLO792; cell growth; 120 h).
The GI50 of `O=C(/C=C/C=C/C=C/C1CCCCC1)NC1=C[C@@](O)(/C=C/C=C/C=C/C(=O)NC2=C(O)CCC2=O)[C@@H]2O[C@@H]2C1=O` is reported as 14.7 µM (SW48; cell growth, CellTiter-Glo; 78 h).
`CC(C)(C)NC(=O)[C@@H]1C[C@@H]2CCCC[C@@H]2CN1C[C@@H](O)[C@H](Cc1ccccc1)NC(=O)[C@H](CC(N)=O)NC(=O)c1ccc2ccccc2n1` has an inhibition of 71% (THP-1; pyroptotic LDH release; 2 µM, 40 min, with: LPS then nigericin).
The plasma concentration of `CC(C)[C@H](NC(=O)[C@H](Cc1ccc(O)cc1)NC(=O)[C@H](Cc1ccc(O)cc1)NC(=O)[C@@H]1CCCN1C(=O)[C@H](CCC(=O)O)NC(=O)[C@H](CCC(=O)O)NC(=O)[C@H](Cc1c[nH]c2ccccc12)NC(=O)[C@@H]1CCCN1C(=O)[C@@H](NC(=O)[C@H](CCC(N)=O)NC(=O)c1ccc2c(c1)C(=O)OC21c2ccc(O)cc2Oc2cc(O)ccc21)C(C)C)C(=O)N[C@H](C(=O)N[C@@H](CCCCN)C(=O)N[C@@H](CCCCN)C(=O)N[C@@H](CO)C(=O)N[C@@H](CO)C(=O)NCC(=O)NCC(N)=O)C(C)C` is reported as 8520 ng/mL (human, plasma; intravenous infusion, 189.6 mg, 0.08333 h).
For `CC/C(=N\NC(=O)C(C)Nc1ccccc1)c1ccc(O)c(C)c1O` (stereo not shown), “LATS band intensity” read 1.68 ± 1.96 (SK-OV-3; Western blot; 10 µM, 3 h, 2D culture, unit not given; baseline: DMSO).
Under “representative mode point of departure”, `COc1cccc2c1C(=O)c1c(O)c3c(c(O)c1C2=O)C[C@@](O)(C(=O)CO)C[C@@H]3O[C@H]1C[C@H](N)[C@H](O)[C@H](C)O1` is recorded as 0.0282 µM (HepG2; protein level, item: metallothionein; 24 h).
`COc1cc2c(cc1OC)C1CN(C)CCC1N=C2c1ccc(NS(=O)(=O)c2ccc(C)cc2)cc1` (stereo not shown) has an EC50 of 2.42 µM (HEK293T ATF4-FLuc reporter; ATF4 reporter gene, activator, luciferase reporter).
`COc1cc(/C=C/C(=O)O)ccc1O` has a kynurenine level of 140 ± 8.3 % change (Caco-2/THP-1 co-culture; concentration not given, with: LPS 100 ng/mL).
The p-p65/p65 ratio of `C[C@H](CS)C(=O)N1CCC[C@H]1C(=O)O` is reported as 34.2 % decrease (HUVEC; western blot; 10, 100, 1 µM, with: angiotensin II; baseline: angiotensin II alone).
For `Cc1cc(O)c2c(c1)C(=O)c1cccc(O)c1C2=O`, the viability was 65.8 ± 10.1% (HK-2 co-cultured with HepaRG; MTT; 33.33 µM, 48 h; baseline: untreated control).
For `COc1ccc2c(N(C)c3ccc(/C(C)=N/OCCN)cc3)c3c(Cl)coc3nc2c1`, “inhibition of cell proliferation” read 70 to 80% (docetaxel-resistant VCaP-AI; trypan blue exclusion; 1 µM, 72 h).
`Cc1nn(-c2nc3ccc(Cl)c(Cl)c3[nH]2)c(O)c1C1OC(=O)c2ccccc21` (stereo not shown) has a phospho-TBK1/TBK1 ratio of 0.791 and 0.878 (RAW-ISG; TBK1 phosphorylation, western blot; 10 µM, with: poly(I:C); baseline: DMSO).
With `Cc1[nH]c2ccccc2c1CCNCc1ccc(/C=C/C(=O)NO)cc1` the EC50 was 0.11 µM (HEK293T ATF4-FLuc reporter; ATF4 reporter gene, activator, luciferase reporter).
For `O=C(O)CC(O)C(=O)O` (stereo not shown), the inhibition was 0.799% (THP-1; pyroptotic LDH release; 2 µM, 40 min, with: LPS then nigericin).
The EC50 of `CCCC1O[C@@H]2C[C@H]3[C@@H]4CCC5=CC(=O)C=C[C@@]5(C)[C@H]4[C@@H](O)C[C@@]3(C)[C@@]2(C(=O)COC(=O)c2ccc(CO[N+](=O)[O-])cc2)O1` (stereo partly shown) is reported as greater than 9.96 µM (HEK293T ATF4-FLuc reporter; ATF4 reporter gene, activator, luciferase reporter).
The inhibition of `Nc1nccc2c1ncn2[C@@H]1O[C@H](CO)[C@@H](O)[C@H]1O` is reported as 0.57% (THP-1; pyroptotic LDH release; 2 µM, 40 min, with: LPS then nigericin).
`Cc1cccc(-c2[nH]c(CNc3ccccc3F)nc2-c2ccc3ncnn3c2)n1` gave a viability of 12% (bone marrow CD138+ myeloma cells; XTT; 1.4 µM, mean of three patients).
`CCn1cc(-c2cc(Cn3ccnc3)cc3c2CCN([C@H](c2cc(OC)ccn2)C2CC2)C3=O)c(C(F)(F)F)n1` gave an EC50 of 2.01 µM (HEP3B217; cell growth; 120 h).
`CCc1c(-c2ccccc2)c(-c2ccccc2)nn1-c1ccccc1-c1cccc(OCC(=O)O)c1` has a mRNA level of 0.753 and 0.801 and 0.796 (mouse osteoclasts; RT-qPCR, item: Pik3cb; concentration not given, unit not given; baseline: bone marrow macrophages).
`Cn1c(Nc2nc3ccc(C(F)(F)F)cc3s2)nc2cc(C(=O)NCCOCCO)ccc21` has a fold change of 3.34 (SH-SY5Y; RNA-seq, item: SPRY1 mRNA; 5 µM, 5 h; baseline: untreated cells).
`Cc1ccc(CNC(=O)Cn2cc(CSc3nc4ccccc4[nH]3)nn2)cc1` gave a cytotoxicity of 71.7% (Caco-2; MTT; 31.3 ppm).
`C=Cc1c2[n-]c(c1C)/C=c1\[n-]/c(c(C)c1C=C)=C\c1[n-]c(c(CCC(=O)O)c1C)/C=c1\[n-]c(c(C)c1CCC(=O)O)=C2.[Sn+4]` has a fold change of 1.95 (SH-SY5Y; RNA-seq, item: CXCL12 mRNA; 5 µM, 5 h; baseline: untreated cells).
The Emax of `CC1(C)COc2ccc(F)cc2CN2c3nc4c(cnn4cc3OC[C@H]2C(F)F)C(=O)N1` is reported as 98.7% (Ba/F3 EML4-ALK variant 1 L1196Q; cell viability).
The kynurenine level of `O=C(O)c1cc(O)c(O)c(O)c1` is reported as 156 ± 19 % change (Caco-2/THP-1 co-culture; 0.1 µg/mL, with: LPS 100 ng/mL).
For `CC(C)C[C@H](NC(=O)C[C@H](O)[C@H](CC(C)C)NC(=O)[C@H](Cc1c[nH]cn1)NC(=O)CNC(=O)[C@@H](NC(=O)[C@H](C)NC(=O)[C@H](Cc1c[nH]c2ccccc12)NC(=O)[C@H](CCC(N)=O)NC(=O)[C@@H](Cc1ccccc1)NC(=O)COCCOCCNC(=O)CCC(C(=O)O)N1CCN(CC(=O)O)CCN(CC(=O)O)CCN(CC(=O)O)CC1)C(C)C)C(N)=O` (stereo partly shown) [lutetium-177 labelled], the tissue uptake was 5 ± 0.8 %ID/g (BALB/c nu/nu mice, female, lumbar lymph node metastases; intravenous, 50 pmol, 24 h).
`Nc1ncc(-c2cccnc2)nc1Nc1ccc2[nH]ccc2c1` gave an EC50 of greater than 9.96 µM (HEK293T ATF4-FLuc reporter; ATF4 reporter gene, activator, luciferase reporter).
`O=C(C[C@@H](C(F)F)n1ccc(F)n1)N1CCC(O)(Cn2cnc3c(cnn3-c3ccc(F)cc3)c2=O)CC1`: “G2/M phase cells” 10.8% (CHP-212 parental; PI flow cytometry; 0.3 µM, 24 h).
The EC50 of `CC(C)(C)Cn1c(N)nc2ccc(-c3[nH]c(C(C)(C)C)nc3-c3ccc(F)cc3)nc21` is reported as 5.24 µM (HEK293T ATF4-FLuc reporter; ATF4 reporter gene, activator, luciferase reporter).
For `COc1cnc2cccc(N3CCc4c(cc(Cn5ccnc5C)cc4-c4cn(C)nc4C(F)(F)F)C3=O)c2c1`, the EC50 was 5.96 µM (SNU119; cell growth; 120 h).
`O=C(O)c1cc(O)c2c(c1)[C@@H]([C@H]1c3cc(C(=O)O)cc(O)c3C(=O)c3c(O[C@@H]4O[C@H](CO)[C@@H](O)[C@H](O)[C@H]4O)cccc31)c1cccc(O[C@@H]3O[C@H](CO)[C@@H](O)[C@H](O)[C@H]3O)c1C2=O` has an inhibition of -18.8% (THP-1; pyroptotic LDH release; 2 µM, 40 min, with: LPS then nigericin).
For `O=C(O)/C=C/c1ccc(O)c(O)c1`, “transepithelial electrical resistance” read 75.2 ± 5.6% (Caco-2/THP-1 co-culture; TEER; 0.05 µg/mL, with: LPS 50 ng/mL; baseline: control).
For `COc1ccc2[nH]c(C(=O)c3ccccc3)cc2c1`, the EC50 was greater than 9.96 µM (HEK293T ATF4-FLuc reporter; ATF4 reporter gene, activator, luciferase reporter).
With `COc1cc(CCC(=O)O)ccc1O` the IL-1β level was 11.3 ± 1.3 fold change (coculture, Caco-2, THP-1; ELISA; 250 ng/mL, 8 h, with: LPS, IFNγ, ATP; baseline: untreated control).
With `CC(C)NCC(O)c1ccc(O)c(O)c1` (stereo not shown) the sarcomere length was 1.8 µm (mouse ventricular cardiomyocytes; dose not given, 0.391 s).
`O=c1c(O)c(-c2ccc(O)cc2)oc2cc(O)cc(O)c12` gave a kynurenine level of 122 ± 2.3 % change (Caco-2/THP-1 co-culture; 0.05 µg/mL, with: LPS 50 ng/mL).
The mRNA level of `COc1cc(/C=C/C(=O)N2CCC=CC2=O)cc(OC)c1OC` is reported as 84.8 ± 1.5% (MDA-MB-468; quantitative RT-PCR, item: PARK7; 30 µM, 8 h; baseline: untreated cells).
`CC(=O)[C@H]1CC[C@H]2[C@@H]3C=CC4=CC(=O)CC[C@@]4(C)[C@@H]3CC[C@]12C` gave an inhibition of 47.5% (THP-1; pyroptotic LDH release; 2 µM, 40 min, with: LPS then nigericin).
For `CC(C)n1ncc2c(C(=O)NCC3(C)CNC3)cc(C3CC3)nc21`, the cell protection was 66% and 53.6% and 79.2% (Enterovirus D68; cytopathic effect; RD, US/MO/14-18949; 500 nM).
With `Cc1cc(-c2ccccc2)n(-c2nc(-c3ccc(Cl)cc3)c3c(NC(=O)c4ccccc4)nnc-3[nH]2)n1` the cell growth was 93.2% (SF-268; SRB; 10 µM, NCI60 single-dose screen; baseline: untreated).
`NC(=O)N1c2ccccc2C=Cc2ccccc21` has an EC50 of 10.2 µM (human iPSC-derived cardiac fibroblasts, reporter lines; profibrotic reporter inhibition; 72 h, 7 doses up to 20 µM, with: 5 ng/mL TGF-β1).
`Cc1ccc(C(=O)c2cc(O)c(O)c([N+](=O)[O-])c2)cc1` gave an inhibition of 7.43% (THP-1; pyroptotic LDH release; 2 µM, 40 min, with: LPS then nigericin).
For `CCCC(=O)[O-].[Na+]`, “transepithelial electrical resistance” read 91.9 ± 4.5% (Caco-2/THP-1 co-culture; TEER; concentration not given, with: LPS 500 ng/mL; baseline: control).
`COc1c(O)c(C)cc2c1C(=O)c1c(ccc(O)c1O)C2=O` has a viability of 69.5 ± 14.2% (HK-2 co-cultured with HepaRG; MTT; 266.67 µM, 24 h; baseline: untreated control).

A few entries again:
For `CC(C)C[C@H](NC(=O)C[C@H](O)[C@H](CC(C)C)NC(=O)[C@H](Cc1c[nH]cn1)NC(=O)CNC(=O)[C@@H](NC(=O)[C@H](C)NC(=O)[C@H](Cc1c[nH]c2ccccc12)NC(=O)[C@H](CCC(N)=O)NC(=O)[C@@H](Cc1ccccc1)NC(=O)COCCOCCNC(=O)CCC(C(=O)O)N1CCN(CC(=O)O)CCN(CC(=O)O)CCN(CC(=O)O)CC1)C(C)C)C(N)=O` (stereo partly shown) [lutetium-177 labelled], the tissue uptake was 5 ± 0.8 %ID/g (BALB/c nu/nu mice, female, lumbar lymph node metastases; intravenous, 50 pmol, 24 h).
`COc1c(O)c(C)cc2c1C(=O)c1c(ccc(O)c1O)C2=O` has a viability of 69.5 ± 14.2% (HK-2 co-cultured with HepaRG; MTT; 266.67 µM, 24 h; baseline: untreated control).
For `CCCC(=O)[O-].[Na+]`, “transepithelial electrical resistance” read 91.9 ± 4.5% (Caco-2/THP-1 co-culture; TEER; concentration not given, with: LPS 500 ng/mL; baseline: control).
`Cc1ccc(C(=O)c2cc(O)c(O)c([N+](=O)[O-])c2)cc1` gave an inhibition of 7.43% (THP-1; pyroptotic LDH release; 2 µM, 40 min, with: LPS then nigericin).
